# Assay results pooled from the literature.
# Lines come from different studies, so protocols differ.
SMILES,test,system,conditions,scale,quantity,value
COc1cc2c(Oc3ccc4[nH]c(C)cc4c3F)ccnc2cc1OCC1(N)CC1,,paediatric refractory sarcoma patients,10 mg,,abdominal distension incidence,25%
Cc1cc(C)c(CNC(=O)c2cc(Cl)c3c(c2C)O[C@@](C)([C@H]2CC[C@H](N(C)C)CC2)O3)c(=O)[nH]1,,relapsed/refractory NHL patients,"dose not given, trial, safety set, all TEAEs grade 5",,incidence of neutrophil count decreased,0%
CO[C@H]1C[C@@H]2CC[C@@H](C)[C@@](O)(O2)C(=O)C(=O)N2CCCC[C@H]2C(=O)O[C@H]([C@H](C)C[C@@H]2CC[C@@H](OC(=O)NCCOCCOCCOCCOCCOCCOCCOCCOCCC(=O)N3CCc4cc(Cn5nc(-c6ccc7oc(N)nc7c6)c6c(N)ncnc65)ccc4C3)[C@H](OC)C2)C[C@@H](O)[C@H](C)/C=C(\C)[C@@H](O)[C@@H](OC)C(=O)[C@H](C)C[C@H](C)/C=C/C=C/C=C/1C,,patients with advanced solid tumours,"intravenous, dose not given, grade ≥3",,incidence of Diarrhea TEAE,0%
O=C(Nc1ccccc1)C1CCN(C(=O)Oc2cccnc2)CC1,adverse event reporting,healthy women,"oral, 20 mg, 7 days",,subjects with eye disorders,0%
Clc1cc2c(cc1Cl)Oc1cc(Cl)c(Cl)cc1O2,"RNA-Seq, item: Cyp2e1","female Sprague-Dawley rat, liver",dose not given,baseline: vehicle,mRNA level,3.4 fold
C[C@]1(CO)Cc2ncn(-c3ccc(C#N)c(Cl)c3)c2C(=O)O1,,human,"all treatments, European food-effect part",,drug-related abnormal skin odour,0%
COc1ccnc(C(=O)N[C@H]2COC(=O)[C@H](Cc3ccccc3)[C@@H](OC(=O)C(C)C)[C@H](C)OC2=O)c1OCOC(=O)C(C)C,,dog,"oral, 90 day, highest dose tested",,NOAEL,939 mg/kg/day
C=CC(=O)Nc1cc(Nc2nccc(Nc3cc(Cl)c(F)cc3C(C)(C)O)n2)c(OC)cc1N1CC[C@@H](N(C)C)C1,,human patients,"oral, 50 mg, treatment-emergent adverse events",,patients with diarrhoea,16.7%
CN1CC[C@@H](c2c(O)cc(O)c3c(=O)cc(-c4ccc(C(F)(F)F)cc4Cl)oc23)[C@@H]1CO,item: Syncope,relapsed AML,"oral, 150 mg, grade 3-4, intermittent dosing",,patients with adverse event,0%
CCc1ccc(CC/C=C/c2ccc3c(c2)C(=O)CC3)cc1,,"Sprague-Dawley rat, male, blood","oral, 120 mg/kg/day, 14 days",,MCV,63.2 fL
COc1ccc([C@@H](O)c2cc(-c3ncnc4cc(N5CCOCC5)ccc34)c(F)cc2Cl)nn1,,"patients, advanced solid tumours","oral, 250 mg twice daily, treatment-emergent, together with: avelumab",,"metabolism, nutrition disorders incidence",3%
CCC[C@@](N)(CO)CCc1ccc(OCCCCCC(C)C)cc1,,"dog, male hounds, plasma","oral capsule, 20 mg/kg, geometric mean",,AUC(0-72 h),20.9 µM·h
COc1ccc2nc3cc(Cl)ccc3c(Nc3cc(CN4CCCC4)c(O)c(CN4CCCC4)c3)c2n1,,"mouse, blood","intraperitoneal, 28 mg/kg",,eosinophil count,1.29 10⁹/L

# For quick reference, copied from above:
SMILES,test,system,conditions,scale,quantity,value
C[C@]1(CO)Cc2ncn(-c3ccc(C#N)c(Cl)c3)c2C(=O)O1,,human,"all treatments, European food-effect part",,drug-related abnormal skin odour,0%
COc1ccnc(C(=O)N[C@H]2COC(=O)[C@H](Cc3ccccc3)[C@@H](OC(=O)C(C)C)[C@H](C)OC2=O)c1OCOC(=O)C(C)C,,dog,"oral, 90 day, highest dose tested",,NOAEL,939 mg/kg/day
